Values quoted from earlier work as cited in several papers.
Compare with care: the assays were run in different laboratories. ± gives the spread as reported.
DRD1: D(1A) dopamine receptor (DRD1, Homo sapiens, UniProt P21728)
Sequence of UniProt P21728 (whole entry, looked up): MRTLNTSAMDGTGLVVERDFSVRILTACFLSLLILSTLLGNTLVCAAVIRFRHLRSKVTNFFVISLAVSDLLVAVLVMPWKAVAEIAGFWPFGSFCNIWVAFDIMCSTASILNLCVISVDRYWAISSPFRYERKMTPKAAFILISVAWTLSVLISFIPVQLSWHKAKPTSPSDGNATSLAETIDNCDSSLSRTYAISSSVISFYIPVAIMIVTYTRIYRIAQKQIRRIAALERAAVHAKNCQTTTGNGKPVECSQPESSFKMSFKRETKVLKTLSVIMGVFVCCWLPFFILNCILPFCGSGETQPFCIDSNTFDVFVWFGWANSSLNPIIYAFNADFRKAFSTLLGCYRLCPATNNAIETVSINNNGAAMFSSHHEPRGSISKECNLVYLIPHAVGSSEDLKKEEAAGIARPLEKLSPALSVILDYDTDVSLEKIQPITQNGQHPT

The IC50 of `NC(=O)[C@@H]1CC[C@@H]2CN1C(=O)N2OS(=O)(=O)O` is reported as over 50 µM (PBP1b; enzyme activity; highest concentration 50 µM).
With `N#CSCCOc1ccc(Oc2ccccc2)cc1` the IC50 was 0.129 µM (squalene synthase Trypanosoma cruzi; inhibitor; mitochondrial membrane vesicles).
`CC(C)=CCC/C(C)=C/Cc1cc(-c2coc3cc(O)ccc3c2=O)ccc1O` has an IC50 of 0.81 ± 0.15 µM (STAT3; reporter gene; Hep3B; together with: IL-6).
With `COc1ccc(/C=C\c2cc(OC)c(OC)c(OC)c2)cc1OP(=O)(O)O` the IC50 was over 40 µM (tubulin (bovine brain); tubulin polymerisation, inhibitor).
The IC50 of `epigallocatechin gallate` is reported as about 0.07 µM (catechol O-methyltransferase (human); enzyme activity, inhibitor; together with: 2-hydroxyestradiol).
With `CN[C@@H]1[C@@H](O)[C@@H](O[C@@H]2[C@@H](O)[C@H](O[C@H]3O[C@H]([C@@H](C)O)[C@@H](O)[C@H](O)[C@H]3N)[C@@H](N)C[C@H]2N)OC[C@]1(C)O` the IC50 was 0.009 ± 0.002 µM (Escherichia coli ribosome; translation, inhibitor, measured: firefly luciferase; Escherichia coli S30 lysate).
For `O=C(O)Cc1ccc(O)c(O)c1`, the IC50 was 61.2 ± 8.08 µM (mitochondrial complex I rat; enzyme activity, inhibitor; rat brain mitochondria, digitonin-treated; 1 min preincubation).
For `CCCCC/C=C\C/C=C\C/C=C\C/C=C\CCCC(=O)NCCO`, the IC50 was 750 µM (MAO-A, pig; inhibitor; brain cortex mitochondria; together with: serotonin).
For `CC(=O)N[C@H]1[C@H](Oc2ccccc2-c2cccc(C(=O)O)c2)O[C@H](CO)[C@H](O)[C@@H]1O`, the IC50 was 0.64 µM (FmlH adhesin; binding to serine-linked TF antigen, inhibitor, ELISA).
With `CC(C)CCCCC/C=C/C=C/C(=O)N[C@H](C(=O)N[C@H]1C[C@@H](O)CCNC(=O)/C=C/[C@H](C)NC1=O)[C@@H](C)O` the IC50 was 0.024 µM (yeast proteasome β2 subunit; inhibitor; purified yeast proteasome).
`C[C@@]12OC(=O)[C@]1([C@@H](O)[C@@H]1C=CCCC1)NC(=O)[C@@H]2CCCl` gave an IC50 of 0.0014 µM (Saccharomyces cerevisiae 20S proteasome β5; chymotrypsin-like activity).
`CCCc1nn(C)c2c(=O)[nH]c(-c3cc(S(=O)(=O)N4CCN(C)CC4)ccc3OCC)nc12` gave an IC50 of over 10 µM (PDE7).
The Ki of `C=CCN(CC=C)CCc1c[nH]c2ccc(Br)cc12` is reported as over 10 µM (DRD1).
`O=C(O)COc1ccc(Cl)cc1` gave an IC50 of about 30000 µM (Torpedo CLC-0 chloride channel; chloride current, inhibitor; intracellular application, +80 mV).
With `C[n+]1cn([C@@H]2O[C@H](COP(=O)(O)OP(=O)([O-])O)[C@@H](O)[C@H]2O)c2nc(N)[nH]c(=O)c21` the IC50 was 0.12 µM (Caenorhabditis elegans decapping scavenger DcpS; hydrolytic activity, inhibitor).
The IC50 of `CC(C)(C)NC(=O)N[C@H](C(=O)N1C[C@H]2[C@@H]([C@H]1C(=O)NC(CC1CCC1)C(=O)C(N)=O)C2(C)C)C(C)(C)C` (stereo partly shown) is reported as 4.13 ± 0.61 µM (3C-like protease).
With `CC1(C)CCC(C)(C)c2cc(C3(c4ccc5cc(C(=O)O)ccc5c4)SCCS3)ccc21` the IC50 was 0.06 µM (CYP26A1; enzyme activity, inhibitor; together with: 9-cis-retinoic acid).
For `COCC[C@H]1CC2CN3CCc4c([nH]c5ccccc45)[C@](C(=O)OC)(C2)[C@H]13`, the IC50 was 0.75 to 0.9 µM (α3β4 nicotinic acetylcholine receptor; desensitized state stabilization).
`O=[N+]([O-])c1ccc(Oc2ccc(S(=O)(=O)NC3CCCCC3)cc2)cc1` has an IC50 of under 5 µM (mitochondrial complex I site IQ; superoxide/H2O2 production, inhibitor).
`C=CCN(CC=C)CCc1c[nH]c2ccc(F)cc12` gave a Ki of over 10 µM (DRD1).
`CCCC(=O)[O-].[Na+]` gave an IC50 of 175 µM (HDAC1; inhibitor).
The IC50 of `Brc1ccc(CN2CCC(CCOC(c3ccccc3)c3ccccc3)CC2)cc1` is reported as 0.479 ± 0.068 µM (norepinephrine transporter; reuptake, inhibitor).

A few entries again:
`C=CCN(CC=C)CCc1c[nH]c2ccc(F)cc12` gave a Ki of over 10 µM (DRD1).
`CCCC(=O)[O-].[Na+]` gave an IC50 of 175 µM (HDAC1; inhibitor).
